Measurements from different studies.
Values joined by “and” are separate records of one study, mostly repeats; a detail may differ. Numbers after ± are the reported error.
folP: Dihydropteroate synthase (folP, Bacteria, UniProt P0AC13)
T1: RNA aptamer; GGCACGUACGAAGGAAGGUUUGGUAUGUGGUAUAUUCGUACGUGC

For Cn1nc(CC(=O)O)c(=O)c2c(=O)[nH]c(N)nc21, the melting temperature was 64 °C (folP; CETSA HiBiT; Escherichia coli, whole cells).
For COc1ccccc1-c1ccncc1C(=O)Nc1nnc(OCc2ccc(Cl)cc2)s1, the remaining activity was 108% (RECQL5 (Homo sapiens, UniProt O94762); ATPase activity, ADP-Glo; 0.12 µM, 1 h).
The kon of CSCC[C@@H]1NC(=O)[C@H](CCC(N)=O)NC(=O)[C@H](CCCCN)NC(=O)[C@@H](NC(=O)CN)CSSC[C@@H]2NC(=O)CNC(=O)[C@H](C)NC(=O)[C@H](CC(C)C)NC(=O)[C@@H]3CSSC[C@@H](C(=O)NCC(=O)O)NC(=O)[C@H](Cc4ccccc4)NC(=O)CNC(=O)[C@H](CC(N)=O)NC(=O)[C@@H]4CCCN4C(=O)CNC(=O)[C@H](CSSC[C@H](NC(=O)[C@H](CCCNC(=N)N)NC(=O)[C@H](CCC(N)=O)NC(=O)[C@H](CCCNC(=N)N)NC(=O)[C@H](CCCCN)NC(=O)[C@H](C(C)C)NC(=O)[C@H](CCC(N)=O)NC(=O)[C@H](CC(N)=O)NC1=O)C(=O)N[C@@H](CCCCN)C(=O)N[C@@H](CCC(N)=O)C(=O)N[C@@H](CC(=O)O)C(=O)N[C@@H](CO)C(=O)N[C@@H](CC(=O)O)C(=O)N3)NC(=O)[C@H](C(C)C)NC2=O is reported as 1.91e+06 ± 220000 M⁻¹ s⁻¹ (Low-density lipoprotein receptor-related protein 6, E1 domain (LRP6, Homo sapiens, UniProt O75581); binding, SPR; pH 7.5).
Cn1nc(C(=O)O)c(=O)c2c(=O)[nH]c(N)nc21: “melting temperature shift” 14.7 °C (folP; CETSA HiBiT; Escherichia coli, cell lysate; concentration not given; baseline: DMSO).
CC(=O)N[C@@H](CO)C(=O)N[C@@H](CC(C)C)C(=O)N[C@@H](CCC(=O)O)C(=O)N[C@@H](CCC(=O)O)C(=O)N1CCC[C@H]1C(=O)N[C@@H](Cc1c[nH]cn1)C(=O)N[C@@H](COP(=O)(O)O)C(=O)N1CCC[C@H]1C(=O)N[C@@H](CCC(=O)O)C(=O)N[C@H](C(=O)NCC(=O)N[C@@H](CCC(=O)O)C(=O)N[C@@H](CCCCN)C(=O)N[C@H](C(=O)N[C@H](C(=O)N[C@@H](C)C(=O)NCC(=O)N[C@@H](CCC(=O)O)C(=O)N[C@H](C(=O)N[C@@H](CC(N)=O)C(N)=O)C(C)C)C(C)C)C(C)C)[C@@H](C)O has a TΔS of -2.48 kcal/mol (Kelch-like ECH-associated protein 1, Kelch domain (KEAP1, Homo sapiens, UniProt Q14145); binding, ITC; pH 7, 298.15 K).
COc1cc(N2CCN(C(=O)C3CCCN3)CC2)ccc1Nc1ncc(Cl)c(Nc2ccccc2P(C)(C)=O)n1 (centres unmarked) gave a NanoBRET ratio of 1.89 and 1.95 and 2.18 (GID4/ALK (Homo sapiens, UniProt Q8IVV7+Q9UM73); ternary complex formation; HEK293T; 250 nM, 6 h; baseline: normalised ratio).
COC(=O)[C@@]1(Cc2ccccc2)C=C(C(=O)OC(C)(C)C)C(=O)CC1 gave a fraction bound of 0.477 (Mitogen-activated protein kinase 14 (MAPK14, Homo sapiens, UniProt Q16539, C162A); peptide binding, fluorescence polarization; 62.5 µM).
COCCCCCNc1nc(NCCCCCCN(C)C)c2cc(NC(=O)/C=C/CN(C)C)ccc2n1 gave a remaining signal of 124% (Histone-lysine N-methyltransferase SETDB1 (SETDB1, Homo sapiens, UniProt Q15047); cell-free assay, inhibitor, FP; 3.906 nM).
For CNc1cc(N)c(C(N)=O)c[n+]1C, the dissociation half-life was 15 min (Nicotinamide N-methyltransferase, SAM-bound (Rattus norvegicus, UniProt A0ABK0M0V0); product complex binding, surface plasmon resonance; 37 °C, together with: SAM).
CC(C)Oc1cc(Cl)ccc1CNc1cc(-c2ccccc2)nc2ncnn12 gave a cAMP luminescence of 18900 a.u. and 20100 a.u. and 14900 a.u. and 20500 a.u. (G-protein coupled receptor 3 (GPR3, Homo sapiens, UniProt P46089, R152A); cAMP level, cAMP GloSensor; 1 µM; higher = more cAMP).
O=C(NCCc1c[nH]c2cc(Cl)cc(Cl)c12)[C@@H]1CCCCN1C(=O)[C@@H]1Cc2c([nH]c3ccccc23)CN1C(=O)CCl — result for “first transition share”: 70% (Peptidyl-prolyl cis-trans isomerase NIMA-interacting 1 (PIN1, Homo sapiens, UniProt Q13526); protein denaturation, thermal shift).
With C[C@](O)(c1cccc(F)c1)c1cn(CSc2ccccc2)nn1 the ΔTm was 1.38 °C (Protein Mdm4 (MDM4, Homo sapiens, UniProt O15151); thermal stability, DSF; 30 µM).
N#Cc1cnc2sc(C(=O)O)cc2c1N1CCc2[nH]nc(C(=O)N[C@@H](CC(=O)NCCOCCN3CCOCC3)c3cccc(Br)c3)c2C1 has a remaining activity of 110% (Interleukin-1 receptor type 1 (IL1R1, Homo sapiens, UniProt P14778); SEAP reporter gene, antagonist; HEK-Blue IL-36R cells; 100 µM, 6 h, together with: IL-1β 5 ng/mL; baseline: untreated).
CC1=C(/C=C/C(C)=C\C=C\C(C)=C\C=O)C(C)(C)CCC1 — result for “Pearson correlation coefficient”: 0.682 ± 0.016 (Rhodopsin (RHO, Homo sapiens, UniProt P08100, P23H); ER retention, co-localization with calnexin; COS-7 transfected P23H; 10 µM, mononucleated cells).
With N#Cc1ccc(NC(=O)Nc2ccccc2O)cc1 the Hill slope was 1.09 (SRSF protein kinase 3 (SRPK3, Homo sapiens, UniProt Q9UPE1); kinase activity, Z'-LYTE).
For CC(CC(=O)O)c1nn(C)c2nc(N)[nH]c(=O)c2c1=O (centres unmarked), the melting temperature was 71.5 °C (folP; CETSA HiBiT; whole cells).
The iBAQ abundance of N#CN1CC[C@H](C(=O)Nc2nc3c(s2)CN(C(=O)Cn2cc(CNC(=O)CCCC[C@@H]4SC[C@@H]5NC(=O)N[C@@H]54)nn2)CC3)C1 is reported as 1.35e+06 and 4.36e+06 and 4.06e+06 (Ubiquitin-like modifier-activating enzyme 1 (UBA1, Homo sapiens, UniProt P22314); probe binding, affinity probe, neutravidin pull-down LC-MS/MS; HEK293T, cell lysate; 5 µM, 1 h, single replicate, unit not given; higher = more pulled down).
CCOC(=O)Cc1n[nH]c2nc(N)[nH]c(=O)c2c1=O has a melting temperature of 56.4 °C (folP; CETSA HiBiT; Escherichia coli, whole cells).
With CC[C@H](C)[C@H](NC(=O)[C@H](CCC(=O)O)NC(=O)[C@H](CCCNC(=N)N)NC(=O)[C@H](C)NC(=O)[C@H](Cc1c[nH]c2ccccc12)NC(=O)[C@H](CCC(=O)O)NC(=O)[C@H](CCC(=O)O)NC(=O)[C@H](CCC(=O)O)NC(C)=O)C(=O)NCC(=O)N[C@@H](C)C(=O)N[C@@H](CCC(N)=O)C(=O)N[C@@H](CC(C)C)C(=O)N[C@@H](CCCNC(=N)N)C(=O)N[C@@H](CCCNC(=N)N)C(=O)N[C@@H](C)C(=O)N[C@@H](C)C(=O)N[C@@H](CC(=O)O)C(=O)N[C@@H](CC(=O)O)C(=O)N[C@@H](CC(C)C)C(=O)N[C@@H](CC(N)=O)C(=O)N[C@@H](C)C(=O)N[C@@H](CCC(N)=O)C(=O)N[C@@H](Cc1ccc(O)cc1)C(=O)N[C@@H](CCC(=O)O)C(=O)N[C@@H](CCCNC(=N)N)C(=O)N[C@@H](CCCNC(=N)N)C(=O)N[C@@H](CCCNC(=N)N)C(N)=O the koff was 0.0043 s⁻¹ (Induced myeloid leukemia cell differentiation protein Mcl-1 homolog, residues 152-308 (Mus musculus, UniProt P97287); surface plasmon resonance; 0.2% DMSO).
For CN1C=CC(=Cc2sc3ccccc3[n+]2CC(=O)NCCOCCOCCOCCNC(=O)CCCC[C@@H]2SC[C@@H]3NC(=O)N[C@@H]32)c2ccccc21, the Kd was 1.57 nM (T1, RNA aptamer; fluorescence titration).
With CC[C@H](C)[C@H](NC(=O)[C@H](CCC(=O)O)NC(=O)[C@H](CCC(=O)O)NC(=O)[C@H](Cc1ccccc1)NC(=O)[C@H](CCCCN)NC(=O)[C@@H]1CCCN1C(=O)[C@H](Cc1c[nH]cn1)NC(=O)[C@H](CCCCN)NC(=O)[C@H](CO)NC(=O)[C@H](CC(C)C)NC(=O)[C@H](Cc1c[nH]cn1)NC(C)=O)C(=O)N[C@@H](CC(C)C)C(=O)N[C@H](C(=O)N[C@@H](CCCNC(=N)N)C(=O)N[C@@H](CC(C)C)C(=O)N[C@@H](CCCNC(=N)N)C(=O)N[C@@H](CC(C)C)C(=O)N[C@@H](CCC(N)=O)C(N)=O)[C@@H](C)O the binding stoichiometry was 1.02 (Calmodulin-1, C-lobe (CALM1, Homo sapiens, UniProt P0DP23); ITC; concentration not given, C-lobe, together with: 1 mM CaCl2).
CC[C@H](C)[C@@H]1NC(=O)[C@H](Cc2ccccc2)NC(=O)[C@H](CCC(=O)O)NC(=O)[C@H](CCCNC(=N)N)NC(=O)CNC(=O)[C@@H](NC(=O)[C@H](CC(C)C)NC(=O)[C@H](CCCNC(=N)N)NC(=O)[C@@H](NC(=O)CNC(=O)[C@H](Cc2ccc(O)cc2)NC(=O)[C@@H]2CCCN2C(=O)[C@H](C)NC(=O)[C@H](C)NC(=O)[C@@H](N)CCCNC(=N)N)C(C)C)CSSC[C@@H]2NC(=O)[C@@H](NC(=O)[C@H](CO)NC(=O)[C@H](CO)NC(=O)[C@H](CO)NC(=O)[C@H](CC(C)C)NC(=O)CNC(=O)[C@H](C)NC(=O)[C@H](CC(C)C)NC(=O)[C@@H](NC(=O)[C@@H](N)CC(=O)O)C(C)C)CSSC[C@H](NC(=O)CNC(=O)[C@H](Cc3c[nH]c4ccccc34)NC(=O)[C@H](CCCCN)NC2=O)C(=O)N[C@@H](CO)C(=O)N[C@@H](CCCCN)C(=O)N[C@@H](CO)C(=O)N[C@@H](CCC(=O)O)C(=O)N[C@@H]([C@@H](C)CC)C(=O)N[C@@H](CO)C(=O)N[C@@H](CO)C(=O)N[C@@H](CC(C)C)C(=O)N[C@H](C(=O)O)CSSC[C@@H](C(=O)NCC(=O)NCC(=O)N[C@@H](CO)C(=O)N[C@@H](CCCNC(=N)N)C(=O)N[C@@H](Cc2c[nH]c3ccccc23)C(=O)O)NC(=O)[C@H]([C@@H](C)O)NC(=O)[C@H](Cc2ccccc2)NC(=O)[C@H]([C@@H](C)CC)NC(=O)[C@H](C(C)C)NC(=O)[C@H](C)NC(=O)[C@H](CCCNC(=N)N)NC1=O gave an Emax of 34.5 ± 8.79% (Relaxin-3 receptor 2 (RXFP4, Homo sapiens, UniProt Q8TDU9, R208A); HEK-293T; baseline: wild type).
CCCCCC=CC=C1C(=O)C=CC1CC=CCCCC(=O)O (centres unmarked) — result for “isoTOP-ABPP competition ratio”: 3 (Large ribosomal subunit protein uL14 (Homo sapiens, UniProt P62829); competitive isoTOP-ABPP, refers to: RPL23 cysteine peptide; Ramos soluble proteome; 100 µM, together with: iodoacetamide probe; baseline: DMSO over compound-treated, higher = stronger cysteine blockade).
Under “activity vs control”, CCCC1(CCC)C(=O)N(c2cccc(CN3CCN(Cc4ccc(Br)cc4)CC3)c2)C1=O is recorded as 67% (Dipeptidyl peptidase 9 (DPP9, Homo sapiens, UniProt Q86TI2); enzyme activity, inhibitor; 5 µM).
CC1(C)C[C@@H](Nc2cccc(-c3sc(C(=O)O)c(OCC(=O)O)c3Cl)c2)CCN1S(=O)(=O)Cc1cccc(NC(=O)CN2CCC(c3ccc4c(c3)oc(=O)n4C3CCC(=O)NC3=O)CC2)c1 (some centres unmarked): “BLI binding response” 0.307 a.u. (Tyrosine-protein phosphatase non-receptor type 1 (PTPN1, Homo sapiens, UniProt P18031); degrader, bio-layer interferometry; 125 nM, biotinylated protein immobilised; higher = more binding).
N[C@H]1CC[C@H](Nc2nccc(-c3cccnc3Oc3ccc(NC(=O)NC4CC4)c4ccccc34)n2)CC1: “log2 LFQ intensity” 17.5 and 19.2 and 18.2 and 20.1 (Adenosine 5'-monophosphoramidase HINT1 (HINT1, Homo sapiens, UniProt P49773); kinobead competition pulldown; HEK293/HCT116 lysate mixture; 10 µM, 1 h, 4 °C; lower = stronger competition).
O=C1C[C@H](c2nc(-c3ccc(F)c4cn[nH]c34)no2)CCCN1c1ccc(F)cc1 (racemic) has a fold change of 30.5 (Cannabinoid receptor 2 (CNR2, Homo sapiens, UniProt P34972, F87A); GloSensor cAMP; concentration not given, CB2 mutant; baseline: mutant over wild type).
For CCCCCC(O)/C=C/C=O (centres unmarked), “isoTOP-ABPP competition ratio” read 1.7 (Alpha-adducin (ADD1, Homo sapiens, UniProt P35611); competitive isoTOP-ABPP, refers to: ADD1 cysteine peptide; Ramos soluble proteome; 100 µM, together with: iodoacetamide probe; baseline: DMSO over compound-treated, higher = stronger cysteine blockade).
Cc1nn(C)c2nc(N)[nH]c(=O)c2c1=O — result for “target engagement efficiency”: 70.3% (folP; CETSA HiBiT; Escherichia coli, whole cells; concentration not given; baseline: whole cell over lysate ΔTm).

For quick reference, copied from above:
For CNc1cc(N)c(C(N)=O)c[n+]1C, the dissociation half-life was 15 min (Nicotinamide N-methyltransferase, SAM-bound (Rattus norvegicus, UniProt A0ABK0M0V0); product complex binding, surface plasmon resonance; 37 °C, together with: SAM).
CC(C)Oc1cc(Cl)ccc1CNc1cc(-c2ccccc2)nc2ncnn12 gave a cAMP luminescence of 18900 a.u. and 20100 a.u. and 14900 a.u. and 20500 a.u. (G-protein coupled receptor 3 (GPR3, Homo sapiens, UniProt P46089, R152A); cAMP level, cAMP GloSensor; 1 µM; higher = more cAMP).
O=C(NCCc1c[nH]c2cc(Cl)cc(Cl)c12)[C@@H]1CCCCN1C(=O)[C@@H]1Cc2c([nH]c3ccccc23)CN1C(=O)CCl — result for “first transition share”: 70% (Peptidyl-prolyl cis-trans isomerase NIMA-interacting 1 (PIN1, Homo sapiens, UniProt Q13526); protein denaturation, thermal shift).
With C[C@](O)(c1cccc(F)c1)c1cn(CSc2ccccc2)nn1 the ΔTm was 1.38 °C (Protein Mdm4 (MDM4, Homo sapiens, UniProt O15151); thermal stability, DSF; 30 µM).
